Published values pooled from the literature.
Every numbered part comes from another study and shows a few of its results, in no order. Positions count from the first letter of the parent shown.

Sample 1
Target: JDP2, bZIP domain (human)
Method: DHFR protein complementation
Medium: yeast
Setting: single substitutions, most at no-binding floor
Reference: wild-type JUN-FOS pair
Reading: higher = stronger binding
Starting sequence: JUN, bZIP domain (human); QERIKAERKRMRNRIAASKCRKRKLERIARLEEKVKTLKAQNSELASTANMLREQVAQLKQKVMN; partner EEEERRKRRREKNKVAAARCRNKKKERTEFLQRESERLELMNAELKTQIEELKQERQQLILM
| Substitution | binding fitness |
| --- | --- |
| E33S | 0.216 natural log |
| L45W | 0.177 natural log |
| A40S | 0.32 natural log |
| A46M | 0.268 natural log |
| V56S | -0.198 natural log |
| R30C | 0.248 natural log |
| L52T | -0.249 natural log |
| E32Y | 0.0876 natural log |
| K39C | 0.23 natural log |
| R30G | 0.344 natural log |
| L59G | 0.00578 natural log |
| A29K | 0.109 natural log |
| K34I | 0.212 natural log |
| E33D | 0.267 natural log |
| K36R | 0.309 natural log |
| A49Q | 0.198 natural log |
| L31R | 0.0143 natural log |
| E32H | 0.161 natural log |

Sample 2
Target: Ras GTPase-activating protein-binding protein 1, RRM domain (G3BP1, Homo sapiens, UniProt Q13283)
UniProt Q13283, sequence (whole entry, looked up): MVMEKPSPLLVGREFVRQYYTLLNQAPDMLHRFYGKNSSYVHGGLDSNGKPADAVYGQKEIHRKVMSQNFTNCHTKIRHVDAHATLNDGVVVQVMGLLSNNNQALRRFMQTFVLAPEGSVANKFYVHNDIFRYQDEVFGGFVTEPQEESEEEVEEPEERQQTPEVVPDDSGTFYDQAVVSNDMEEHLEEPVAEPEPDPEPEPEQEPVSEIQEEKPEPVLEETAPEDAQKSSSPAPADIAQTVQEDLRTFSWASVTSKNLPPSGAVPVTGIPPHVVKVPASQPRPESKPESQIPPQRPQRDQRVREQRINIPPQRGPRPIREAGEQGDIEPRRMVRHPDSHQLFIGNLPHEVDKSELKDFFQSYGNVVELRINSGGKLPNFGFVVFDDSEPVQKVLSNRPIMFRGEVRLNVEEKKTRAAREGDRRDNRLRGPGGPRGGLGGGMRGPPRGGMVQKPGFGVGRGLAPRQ
Method: RNA Bind-n-Seq
Form: RNA
Medium: in vitro
Tested at: 1 µM
Setting: whole 134-nt RNA, ends assumed
With: 150 mM KCl
Reference: input library
Reading: higher = stronger binding
| Sequence | log2 enrichment |
| --- | --- |
| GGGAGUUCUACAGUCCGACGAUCAAGUCCUGUGCUACACAUCGUAUGUACCGAAUCGGGUUUUUUUGGGUUUGGGUGGGAAAGUAUUAUGUUACGCCGUUCGGAUCUGCACUUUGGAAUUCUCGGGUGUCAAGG | 0.265 |
| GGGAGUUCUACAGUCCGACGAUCUGCUGGAGAUGCAAUAUAUGAGGUGGUGAGUCUACAGCGAGAGUCUGACAAGGAGGAACCAGUCACUCCUACUAGUGGAGGGGGUCCAAUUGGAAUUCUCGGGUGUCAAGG | -0.288 |
| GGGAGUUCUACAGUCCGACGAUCUCCUCAAGUCCUGUGCUACACAUCGUAUGUACCGAAUCGGGGAGGGAGGAGGAAAGUAUUAUGUUACGCCGUUCGGAUCUGCACUUCCAGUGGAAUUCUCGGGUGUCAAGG | -0.196 |
| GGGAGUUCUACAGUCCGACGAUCGCAGGAAGUAAAAACAAACGGAAAUGCUUCGGAUAGUGGCAGGGGUGGGGGUUGCUAAGGAAAGGGUGGGAUGGGAGUGGGUAAAGAGUUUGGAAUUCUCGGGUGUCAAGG | 0.952 |
| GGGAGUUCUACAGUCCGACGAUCUGGGAGGUGGAUUUUGUUUAUUUUUUUAGCUCAUUUCCAGGGGUGGGAAUUUUUUUUUAAUAUGUGUCAUGAAUAAAGUUGUUUUCGAAAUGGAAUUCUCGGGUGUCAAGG | 1.51 |
| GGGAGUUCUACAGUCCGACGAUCUCCUGUGCUACACAUCGUAUGUACCGAAUCGGGAAAAAGGGAAAAAAAGGGAAAAAGGGAAAGUAUUAUGUUACGCCGUUCGGAUCUGCAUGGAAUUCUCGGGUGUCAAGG | 0.194 |
| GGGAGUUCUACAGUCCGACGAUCUCCUGUGCUACACAUCGUAUGUACCGAAUCAAACCCCCCCAAACCCCCAAACCCCCAAAAAAGUAUUAUGUUACGCCGUUCGGAUCUGCAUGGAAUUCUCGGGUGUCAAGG | -0.196 |
| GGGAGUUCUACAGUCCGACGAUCAGUCCUGUGCUACACAUCGUAUGUACCGAAUCGGGUUUGGGUUUUUUUGGGAAAGGGAAAGUAUUAUGUUACGCCGUUCGGAUCUGCACUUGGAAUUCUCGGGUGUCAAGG | 0.71 |
| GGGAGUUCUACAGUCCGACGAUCUUCACAGGUAAGUGGGGCAGUGUCCGGACCAGUGGACGCAGCAGUGGCCUUGGCACCGAUGUGGGCUCCCGGCUAGCUGGCAGAGACGCGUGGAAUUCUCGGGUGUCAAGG | -0.549 |
| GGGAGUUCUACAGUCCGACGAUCUAACUUUAGAGGAGGAUCUGAUGGAUAUGGCAGUGGACGUGGAUUUGGGGAUGGCUAUAAUGGGUAUGGAGGAGGAUCUGGAGGUGGCAAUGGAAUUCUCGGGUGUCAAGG | -0.264 |

Sample 3
Target: Histone acetyltransferase KAT6A, both winged helices, GST fusion (KAT6A, Homo sapiens, UniProt Q92794, residues 1-181)
Method: protein binding microarray
Form: double-stranded DNA, one strand shown
Medium: in vitro
Tested at: not given
Setting: 8-mer, flanks averaged, mean of 2 arrays, mostly near background
Reference: not given
Reading: higher = stronger binding
Target sequence (chain): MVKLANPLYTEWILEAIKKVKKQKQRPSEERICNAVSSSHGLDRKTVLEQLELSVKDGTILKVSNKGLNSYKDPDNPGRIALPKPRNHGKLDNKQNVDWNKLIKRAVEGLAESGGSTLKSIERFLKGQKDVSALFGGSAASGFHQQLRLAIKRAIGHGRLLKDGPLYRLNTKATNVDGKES
| Sequence | E-score |
| --- | --- |
| CACAGCGA | 0.102 |
| GCGCACAC | 0.251 |
| ACTCACAG | -0.193 |
| ACCCCAAG | -0.257 |
| CCTTCCGA | 0.087 |
| TCATGAGA | -0.0473 |
| CCCGGGCG | 0.332 |
| AATTTGTA | -0.0496 |
| ATACCTCC | -0.102 |
| CATTAGAG | -0.219 |
| TCCCAAAA | -0.0798 |
| ATAGAACG | 0.0989 |
| GCATTGAC | 0.0692 |
| AGGCCACC | -0.16 |
| TAAACTAA | -0.0882 |
| AGACATCA | -0.0358 |
| AGCGATAC | 0.0472 |
| CGTTTCCA | -0.0816 |
| CTTTTCGA | -0.179 |
| ATTACAGC | 0.0286 |
| CTATTTAA | 0.092 |
| AGCCGGTC | 0.164 |
| CGAGGGGA | -0.0845 |
| AATCGGCC | 0.0875 |

Sample 4
Organism: Saccharomyces cerevisiae
Observed: cell growth
Method: competitive growth deep sequencing
Form: peptide
Setting: peptide tiling library
With: cyclin E2-Cln2 fusion
Reading: direction not given
| Molecule | enrichment score |
| --- | --- |
| PLRKAKRARLCSSSSS | 1.65 |
| TSPGPVLLHPSPSTTQ | 0.318 |
| ALLRRLQDVANDRGSH | 0.203 |
| KDDDKAWEYEERDRRS | 0.525 |
| KPITLDTTDFQESFVT | 1.04 |
| IQKKLRFEDTLEFVGF | -1.14 |
| GQLVIPLDELTLDTSF | 2.03 |
| CFRCLLFSFSGRSGVE | -0.923 |
| LAKRALKYTD | -2.2 |
| SDSTVTKLDFDLEP | 1.14 |
| ESSTVSEEDYFSSHRD | 1.82 |
| SPREGHMMDALYAQVK | 1.45 |
| MNQELLSVGSKRRRTG | 2.39 |

Sample 5
Target: ABI1, truncated, D143A, DHFR fusion (Arabidopsis thaliana)
Method: DHFR PCA, deep sequencing
Medium: yeast
Setting: methotrexate growth selection, single substitutions
With: (+)-ABA 0.11 µM
Reference: wild-type fitted maximum
Reading: higher = stronger binding
Starting sequence: PYL1, truncated, DHFR fusion (Arabidopsis thaliana); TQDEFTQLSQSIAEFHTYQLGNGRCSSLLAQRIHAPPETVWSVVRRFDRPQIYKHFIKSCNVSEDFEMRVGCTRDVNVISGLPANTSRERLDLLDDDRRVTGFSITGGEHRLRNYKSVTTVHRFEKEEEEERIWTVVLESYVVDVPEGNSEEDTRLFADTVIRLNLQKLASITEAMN; partner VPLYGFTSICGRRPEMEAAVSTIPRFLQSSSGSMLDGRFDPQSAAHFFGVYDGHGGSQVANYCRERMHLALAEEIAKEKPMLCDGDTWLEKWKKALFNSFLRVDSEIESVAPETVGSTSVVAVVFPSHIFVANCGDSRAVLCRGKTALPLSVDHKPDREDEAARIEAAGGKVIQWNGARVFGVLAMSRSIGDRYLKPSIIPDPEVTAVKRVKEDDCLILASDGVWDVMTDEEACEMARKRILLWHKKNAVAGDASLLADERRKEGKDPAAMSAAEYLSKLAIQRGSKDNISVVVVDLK
| Substitution | relative binding score [%] |
| --- | --- |
| T17K | 10.6 |
| Q51F | 3.89 |
| D48G | 2.55 |
| M68F | 6.47 |
| L166Q | 5.35 |
| G71A | 2.53 |
| T154L | 4.94 |
| G107D | 30.3 |
| D75P | 3.75 |
| V44C | 1.85 |
| I12C | -0.935 |
| I162E | 4.59 |
| D159V | 3.37 |
| Y18N | -0.571 |
| D65G | 28.1 |
| I57C | -5.02 |
| N85F | 65.1 |
| A175R | 32.5 |
| C72G | 3.03 |

Sample 6
Target: Sal-like protein 4, full length isoform A (SALL4, Homo sapiens, UniProt Q9UJQ4, residues 1-1053)
UniProt Q9UJQ4, sequence (whole entry, looked up): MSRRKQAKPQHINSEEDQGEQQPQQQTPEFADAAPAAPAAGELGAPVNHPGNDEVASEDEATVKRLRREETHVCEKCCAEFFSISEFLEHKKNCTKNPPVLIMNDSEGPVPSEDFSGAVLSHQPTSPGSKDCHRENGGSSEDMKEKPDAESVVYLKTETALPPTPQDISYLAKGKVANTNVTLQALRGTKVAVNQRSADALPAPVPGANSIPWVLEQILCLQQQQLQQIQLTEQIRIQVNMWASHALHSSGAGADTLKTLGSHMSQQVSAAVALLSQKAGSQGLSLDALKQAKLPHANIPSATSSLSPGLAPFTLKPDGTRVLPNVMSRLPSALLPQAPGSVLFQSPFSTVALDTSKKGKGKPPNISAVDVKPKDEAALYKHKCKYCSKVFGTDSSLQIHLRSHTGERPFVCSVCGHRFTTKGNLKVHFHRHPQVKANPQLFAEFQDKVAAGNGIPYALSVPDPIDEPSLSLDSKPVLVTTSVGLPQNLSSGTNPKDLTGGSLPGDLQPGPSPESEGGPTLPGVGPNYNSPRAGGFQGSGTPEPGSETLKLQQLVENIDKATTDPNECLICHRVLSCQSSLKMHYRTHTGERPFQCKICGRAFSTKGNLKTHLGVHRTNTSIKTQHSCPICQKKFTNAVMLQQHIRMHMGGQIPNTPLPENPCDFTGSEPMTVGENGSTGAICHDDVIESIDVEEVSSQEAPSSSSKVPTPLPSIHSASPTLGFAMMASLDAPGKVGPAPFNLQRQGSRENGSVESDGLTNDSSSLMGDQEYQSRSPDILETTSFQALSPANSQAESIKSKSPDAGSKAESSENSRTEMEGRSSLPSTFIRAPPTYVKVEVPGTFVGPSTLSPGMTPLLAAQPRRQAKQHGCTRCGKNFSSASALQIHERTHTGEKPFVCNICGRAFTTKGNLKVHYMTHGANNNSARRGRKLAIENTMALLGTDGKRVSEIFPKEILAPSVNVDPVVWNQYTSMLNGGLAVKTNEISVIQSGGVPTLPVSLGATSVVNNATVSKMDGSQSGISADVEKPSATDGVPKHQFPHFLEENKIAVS
Method: universal PBM
Form: double-stranded DNA, one strand shown
Medium: in vitro
Tested at: 600 nM
Setting: 8-mer, flanks averaged, mean of replicates
Reading: higher = stronger binding
| Sequence | E-score |
| --- | --- |
| AAATCCAC | 0.0659 |
| AGAGATGA | 0.135 |
| ATGAAATG | 0.205 |
| TCAACAGA | 0.0889 |
| ACGTGCTA | 0.0743 |
| AGGAGCGC | -0.25 |
| GCTTGAGA | -0.0636 |
| CCCGGGAC | -0.394 |
| CGCATTTA | 0.186 |
| ACGACAAA | 0.208 |
| TCCTATCA | 0.0905 |
| AACGCCCA | -0.0273 |
| GATTTAAA | 0.171 |
| CCGAGTTA | -0.0029 |
| CATGCCCA | -0.328 |
| AACTCACA | 0.107 |
| CATTTTAA | 0.286 |
| ACTGAAAC | 0.165 |
| CTGCCGCC | -0.413 |
| ATTGGGCC | -0.11 |
| GATGGCCA | -0.12 |
| GCAAAGCA | -0.0347 |
| AAGCGATG | 0.00382 |
| CGCACTCA | -0.114 |
| GGTCAGTA | -0.081 |
